Measurements collected from several papers.
Each line is one published result; not all experiments were run side by side. ± marks the error that the study gave.

SMILES	tested on	assay	system	setting	how to read	measurement	value
OC[C@H]1O[C@@H](c2ccc(Cl)c(Cc3ccc(O[C@H]4CCOC4)cc3)c2)[C@H](O)[C@@H](O)[C@@H]1O	–	–	Japanese type 1 diabetes patients	10 mg, day 28, 672 h	relative to: baseline	diastolic blood pressure change	-2.7 mmHg
c1ccc(-c2n[nH]cc2-c2ccnc3ccccc23)nc1	–	kinase binding, competitor, MIB/MS competition, refers to: IKS1	Candida albicans cell lysate	1 µM	relative to: DMSO	log2 fold change	1.31
COc1cc(O)c(CC=C(C)C)c(O)c1C(=O)/C=C/c1ccc(O)cc1	–	glucose tolerance test	Tac:SW mice (male, germ-free, high-fat diet)	in diet, 60 mg/kg per day, 15 min after glucose, after 10 weeks	–	blood glucose	256 mg/dL
C=CCn1c(=O)c2cnc(Nc3ccc(N4CCN(C)CC4)cc3)nc2n1-c1ccc2c(n1)[C@@](O)(CC)CC2	–	–	OVCAR-3 xenograft, NOD/SCID mice	oral, 80 mg/kg, day 49, once daily 7 d on, 7 d off x 3	–	tumour volume difference	418 ± 21.7 mm3
Cc1cc(C)c(CNC(=O)c2cc(Cl)c3c(c2C)O[C@@](C)([C@H]2CC[C@H](N(C)C)CC2)O3)c(=O)[nH]1	–	–	relapsed/refractory B-NHL patients	dose not given, IWG 2007 criteria	–	best overall response stable disease	42%
Cc1cc(Nc2cc3ncccc3c(N[C@@H]3C[C@H]4CC[C@@H](C3)N4CCC#N)n2)n[nH]1	–	–	Balb/c mice, oxazolone colitis, colonic mucosa	oral, 30 mg/kg twice daily	relative to: vehicle	pSTAT3 level	inhibited
NCC(=O)Nc1cncc(-c2nn3c(=O)cc(N4CCNCC4)nc3s2)c1	–	ADP-induced platelet aggregation, light transmission aggregometry	human stable CAD patients on aspirin, platelets ex vivo	0.04 mg/kg, 90 min post dose, added: 20 µM ADP	relative to: placebo difference	inhibition of platelet aggregation	-3.33%
COc1ccc(F)cc1C(=O)NCc1ccc(-c2nn([C@@H](C)C(F)(F)F)c(N)c2C(N)=O)cc1	–	–	MCL patients, prior BTK inhibitor	dose not given, efficacy-evaluable patients	–	overall response rate	52%
Cn1cc(-c2ccc(-c3cncc(Cl)c3N3CCC4(CCNC4=O)CC3)cc2)cn1	COLO 205	gene expression, microarray, refers to: CCNB1 mRNA	–	concentration not given, 2 h	relative to: untreated cells	log2 fold change	-2.32
Cc1cc(C)c(CNC(=O)c2cc(Cl)c3c(c2C)O[C@@](C)([C@H]2CC[C@H](N(C)C)CC2)O3)c(=O)[nH]1	–	–	relapsed/refractory NHL patients, total incl. ATLL and CTCL	oral, dose not given	–	best overall response PD	20%
COc1ncc(-c2nc3c(n2C(C)C)[C@H](c2ccc(Cl)cc2)N(c2cc(Cl)cn(C)c2=O)C3=O)c(OC)n1	–	International Working Group criteria	human acute myeloid leukemia patients	oral, 120 mg, response Unknown, high-dose, recommended dose for expansion	–	best overall response	8.3%
C[C@H](Oc1ccc(Br)cc1-c1ccon1)C(=O)O	–	muscle velocity recovery cycles	human, tibialis anterior muscle	1200 mg single dose, 3.5 h post-dose, frequency ramp, first response at 30 Hz	relative to: placebo	latency change	-2.15%
Cc1n[nH]c2ccc(-c3cc(OC[C@@H](N)Cc4ccccc4)cnc3-c3ccoc3)cc12	–	kinase binding, competitor, MIB/MS competition, refers to: CMK1	Candida albicans cell lysate	10 µM	relative to: DMSO	log2 fold change	-0.566
O=C(O)CNC(=O)Cc1ccccc1	–	–	ventricular cardiomyocytes, C57BL/6 mouse	dose not given, 0.412 s	–	sarcomere length	1.72 µm
CCOc1c([C@H](C)n2nc(C)c3c(N)ncnc32)cc(Cl)c(F)c1[C@@H]1CNC(=O)C1	–	Olink proximity extension, refers to: PPY	human FL or MZL patients, plasma	dose not given, week 8 day 1, once-daily dosing	relative to: baseline	percent change in level	181%
COc1ncnn2ccc(-c3cnc4nc(C)n(Cc5nnc([C@@H](C)F)o5)c4c3)c12	–	–	relapsed or refractory AML, MDS	dose not given, splicing factor mutation-negative	–	best overall response MLFS	0%
C[C@H]1C[C@H]2CSC(N)=N[C@@]2(c2nc(NC(=O)c3ccc(OC(F)F)cn3)cs2)CO1	–	refers to: Aβ1-40	healthy adults, plasma	15 mg once daily, day 2	relative to: placebo	percent change from baseline	-58%
NC(=O)c1cnc2[nH]ccc2c1N[C@@H]1[C@@H]2CC3C[C@H]1C[C@@](O)(C3)C2	–	CD4+ CD28+ naive T cells, flow cytometry	Japanese humans, peripheral blood	20 mg single dose	relative to: baseline	percent change	0.8%
CC(C)C[C@H](NC(=O)C[C@H](O)[C@H](CC(C)C)NC(=O)[C@H](Cc1c[nH]cn1)NC(=O)CNC(=O)[C@@H](NC(=O)[C@H](C)NC(=O)[C@H](Cc1c[nH]c2ccccc12)NC(=O)[C@H](CCC(N)=O)NC(=O)[C@@H](Cc1ccccc1)NC(=O)COCCOCCNC(=O)CCC(C(=O)O)N1CCN(CC(=O)O)CCN(CC(=O)O)CCN(CC(=O)O)CC1)C(C)C)C(N)=O (stereo partly shown) [lutetium-177 labelled]	–	–	female BALB/c nu/nu mice, lung	intravenous, 50 pmol, 1 h	–	tissue uptake	0.4 ± 0.1 %ID/g
